Assay results collected from several papers.
A part holds a random share of what one study measured. Several values in a cell are separate wells, animals, samples, runs or records. Positions count from the first letter of the parent shown. Numbers after ± are the reported error.
Chain of UniProt Q05397 (whole entry, looked up): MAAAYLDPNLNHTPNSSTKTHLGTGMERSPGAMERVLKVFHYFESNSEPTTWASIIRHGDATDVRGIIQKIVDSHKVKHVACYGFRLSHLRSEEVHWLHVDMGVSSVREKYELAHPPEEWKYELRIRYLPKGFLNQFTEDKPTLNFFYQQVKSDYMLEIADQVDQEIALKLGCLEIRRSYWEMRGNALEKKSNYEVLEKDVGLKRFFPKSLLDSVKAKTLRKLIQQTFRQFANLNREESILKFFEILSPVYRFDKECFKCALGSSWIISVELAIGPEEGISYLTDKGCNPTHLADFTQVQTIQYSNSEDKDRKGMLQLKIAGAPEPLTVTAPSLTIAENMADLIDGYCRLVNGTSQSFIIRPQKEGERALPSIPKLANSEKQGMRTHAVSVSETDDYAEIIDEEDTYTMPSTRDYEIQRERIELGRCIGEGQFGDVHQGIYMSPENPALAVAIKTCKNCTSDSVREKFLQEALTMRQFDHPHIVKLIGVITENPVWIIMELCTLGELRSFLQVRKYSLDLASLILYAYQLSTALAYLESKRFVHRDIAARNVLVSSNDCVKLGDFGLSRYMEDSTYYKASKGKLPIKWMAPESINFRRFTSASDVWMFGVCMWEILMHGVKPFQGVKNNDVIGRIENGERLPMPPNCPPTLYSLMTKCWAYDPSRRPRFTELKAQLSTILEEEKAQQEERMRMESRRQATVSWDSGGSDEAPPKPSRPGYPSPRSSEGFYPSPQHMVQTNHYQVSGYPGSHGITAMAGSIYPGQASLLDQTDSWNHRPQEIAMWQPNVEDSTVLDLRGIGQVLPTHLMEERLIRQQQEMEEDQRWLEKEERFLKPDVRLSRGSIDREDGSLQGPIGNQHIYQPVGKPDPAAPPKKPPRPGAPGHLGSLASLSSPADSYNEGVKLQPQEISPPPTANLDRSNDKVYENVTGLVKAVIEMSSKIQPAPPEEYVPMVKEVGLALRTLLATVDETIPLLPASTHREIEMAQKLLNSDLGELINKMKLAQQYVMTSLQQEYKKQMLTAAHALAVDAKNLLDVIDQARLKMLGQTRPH
Chain of UniProt P51817 (whole entry, looked up): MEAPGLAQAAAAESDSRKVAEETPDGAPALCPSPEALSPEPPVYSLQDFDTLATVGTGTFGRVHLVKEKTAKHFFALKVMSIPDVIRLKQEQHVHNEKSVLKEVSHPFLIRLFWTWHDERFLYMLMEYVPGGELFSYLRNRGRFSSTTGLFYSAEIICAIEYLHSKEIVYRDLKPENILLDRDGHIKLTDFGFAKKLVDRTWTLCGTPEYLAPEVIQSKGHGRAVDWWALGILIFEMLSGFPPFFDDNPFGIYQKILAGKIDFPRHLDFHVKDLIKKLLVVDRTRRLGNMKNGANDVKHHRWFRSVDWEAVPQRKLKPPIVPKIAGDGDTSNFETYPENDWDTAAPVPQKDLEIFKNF
Chain of UniProt P27448 (whole entry, looked up): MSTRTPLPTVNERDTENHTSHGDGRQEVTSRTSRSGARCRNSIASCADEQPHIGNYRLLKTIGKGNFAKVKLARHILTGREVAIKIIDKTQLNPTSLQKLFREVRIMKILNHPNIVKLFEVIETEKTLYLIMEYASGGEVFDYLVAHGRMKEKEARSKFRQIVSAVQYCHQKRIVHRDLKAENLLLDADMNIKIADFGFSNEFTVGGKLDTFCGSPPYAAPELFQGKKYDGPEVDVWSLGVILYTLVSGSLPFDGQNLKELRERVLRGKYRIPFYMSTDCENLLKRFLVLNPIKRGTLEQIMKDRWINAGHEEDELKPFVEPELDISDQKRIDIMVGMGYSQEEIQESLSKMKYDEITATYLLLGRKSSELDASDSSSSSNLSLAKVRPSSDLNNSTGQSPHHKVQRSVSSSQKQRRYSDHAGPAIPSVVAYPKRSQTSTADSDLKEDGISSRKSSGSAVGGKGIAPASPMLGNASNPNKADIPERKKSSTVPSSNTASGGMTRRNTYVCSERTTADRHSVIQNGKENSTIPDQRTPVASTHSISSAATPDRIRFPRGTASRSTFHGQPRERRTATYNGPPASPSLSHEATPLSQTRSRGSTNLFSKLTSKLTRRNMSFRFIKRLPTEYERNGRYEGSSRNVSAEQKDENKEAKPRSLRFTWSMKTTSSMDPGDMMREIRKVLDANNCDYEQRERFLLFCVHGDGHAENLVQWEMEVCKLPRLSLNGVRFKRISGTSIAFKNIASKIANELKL
Chain of UniProt P53667 (whole entry, looked up): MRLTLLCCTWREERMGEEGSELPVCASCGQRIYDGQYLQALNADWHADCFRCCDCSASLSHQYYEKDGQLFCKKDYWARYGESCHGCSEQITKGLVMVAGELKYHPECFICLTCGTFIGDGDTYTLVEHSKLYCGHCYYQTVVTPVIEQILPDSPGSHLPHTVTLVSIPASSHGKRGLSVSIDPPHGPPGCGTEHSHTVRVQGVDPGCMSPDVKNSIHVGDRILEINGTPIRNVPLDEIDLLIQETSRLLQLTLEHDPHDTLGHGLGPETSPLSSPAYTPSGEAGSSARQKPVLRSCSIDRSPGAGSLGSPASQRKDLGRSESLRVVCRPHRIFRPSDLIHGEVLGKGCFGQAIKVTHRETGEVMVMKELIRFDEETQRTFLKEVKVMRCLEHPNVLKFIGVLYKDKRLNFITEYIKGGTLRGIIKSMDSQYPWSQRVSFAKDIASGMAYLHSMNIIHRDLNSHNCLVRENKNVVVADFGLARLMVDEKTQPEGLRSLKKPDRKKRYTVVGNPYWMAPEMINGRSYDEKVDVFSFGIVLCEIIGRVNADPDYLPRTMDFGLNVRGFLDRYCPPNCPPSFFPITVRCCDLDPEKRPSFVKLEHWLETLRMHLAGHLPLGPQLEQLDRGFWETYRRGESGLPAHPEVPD
Chain of UniProt Q9UBE8 (whole entry, looked up): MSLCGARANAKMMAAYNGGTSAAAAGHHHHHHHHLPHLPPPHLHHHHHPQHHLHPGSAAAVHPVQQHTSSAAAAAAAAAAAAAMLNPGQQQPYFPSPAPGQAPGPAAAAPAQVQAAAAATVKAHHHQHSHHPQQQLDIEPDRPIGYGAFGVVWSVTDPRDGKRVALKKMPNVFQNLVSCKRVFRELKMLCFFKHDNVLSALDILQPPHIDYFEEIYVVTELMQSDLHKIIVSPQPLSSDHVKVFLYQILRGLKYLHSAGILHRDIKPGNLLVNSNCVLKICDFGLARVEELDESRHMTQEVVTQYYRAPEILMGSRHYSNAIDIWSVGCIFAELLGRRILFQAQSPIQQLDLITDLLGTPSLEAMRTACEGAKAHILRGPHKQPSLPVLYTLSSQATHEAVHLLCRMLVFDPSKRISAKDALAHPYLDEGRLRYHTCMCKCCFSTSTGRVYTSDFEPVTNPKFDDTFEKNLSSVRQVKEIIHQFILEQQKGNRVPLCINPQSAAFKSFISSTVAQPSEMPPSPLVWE
Chain of UniProt Q00526 (whole entry, looked up): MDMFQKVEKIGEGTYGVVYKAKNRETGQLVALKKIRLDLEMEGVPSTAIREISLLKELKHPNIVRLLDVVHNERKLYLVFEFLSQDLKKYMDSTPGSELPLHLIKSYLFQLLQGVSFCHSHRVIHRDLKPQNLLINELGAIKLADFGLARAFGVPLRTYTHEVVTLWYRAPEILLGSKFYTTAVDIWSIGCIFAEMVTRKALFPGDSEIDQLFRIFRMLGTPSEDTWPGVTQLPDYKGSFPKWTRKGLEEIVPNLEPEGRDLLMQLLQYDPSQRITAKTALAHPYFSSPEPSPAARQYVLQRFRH
Chain of UniProt P31749 (whole entry, looked up): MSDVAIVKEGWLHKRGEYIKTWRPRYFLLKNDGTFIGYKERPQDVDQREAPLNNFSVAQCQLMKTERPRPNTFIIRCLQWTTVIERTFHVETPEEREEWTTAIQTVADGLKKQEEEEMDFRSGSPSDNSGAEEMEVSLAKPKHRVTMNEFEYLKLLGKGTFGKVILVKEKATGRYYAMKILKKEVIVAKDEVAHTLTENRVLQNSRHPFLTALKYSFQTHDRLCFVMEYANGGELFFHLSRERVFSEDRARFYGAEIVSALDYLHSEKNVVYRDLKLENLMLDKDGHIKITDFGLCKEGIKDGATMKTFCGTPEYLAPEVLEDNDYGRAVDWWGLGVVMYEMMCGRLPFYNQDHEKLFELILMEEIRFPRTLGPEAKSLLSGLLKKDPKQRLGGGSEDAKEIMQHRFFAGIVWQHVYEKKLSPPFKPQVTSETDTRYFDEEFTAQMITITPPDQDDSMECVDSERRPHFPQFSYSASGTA
Chain of UniProt Q8NG66 (whole entry, looked up): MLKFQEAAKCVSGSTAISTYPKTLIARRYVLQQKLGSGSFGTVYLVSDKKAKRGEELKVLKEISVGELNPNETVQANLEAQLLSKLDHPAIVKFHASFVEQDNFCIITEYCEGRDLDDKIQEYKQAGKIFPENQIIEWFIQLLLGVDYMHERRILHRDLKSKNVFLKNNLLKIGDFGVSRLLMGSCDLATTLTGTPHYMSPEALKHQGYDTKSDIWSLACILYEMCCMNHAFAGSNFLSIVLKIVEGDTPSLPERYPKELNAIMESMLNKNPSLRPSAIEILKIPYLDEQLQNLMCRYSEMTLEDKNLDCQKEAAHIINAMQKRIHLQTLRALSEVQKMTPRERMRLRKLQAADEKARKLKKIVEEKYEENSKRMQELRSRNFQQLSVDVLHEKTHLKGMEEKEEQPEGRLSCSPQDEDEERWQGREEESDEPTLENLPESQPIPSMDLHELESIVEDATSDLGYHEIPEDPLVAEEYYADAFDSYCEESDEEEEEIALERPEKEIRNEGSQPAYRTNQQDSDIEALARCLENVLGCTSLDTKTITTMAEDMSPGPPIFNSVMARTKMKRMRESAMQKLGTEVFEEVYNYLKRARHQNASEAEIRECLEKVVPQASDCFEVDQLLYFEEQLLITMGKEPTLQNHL

Study 1 — Change: D97H; method: DHFR PCA, deep sequencing; matrix: yeast; baseline: wild-type fitted maximum; direction: higher = stronger binding; endpoint: relative binding score
Target: ABI1, truncated, D143A, DHFR fusion (Arabidopsis thaliana)
Setting: methotrexate growth selection, single substitutions
Starting sequence: PYL1, truncated, DHFR fusion (Arabidopsis thaliana); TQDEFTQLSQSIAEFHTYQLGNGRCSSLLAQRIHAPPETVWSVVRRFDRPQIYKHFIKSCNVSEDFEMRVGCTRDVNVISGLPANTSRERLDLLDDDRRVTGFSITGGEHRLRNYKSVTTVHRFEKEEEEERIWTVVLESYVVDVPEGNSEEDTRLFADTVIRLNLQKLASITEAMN; partner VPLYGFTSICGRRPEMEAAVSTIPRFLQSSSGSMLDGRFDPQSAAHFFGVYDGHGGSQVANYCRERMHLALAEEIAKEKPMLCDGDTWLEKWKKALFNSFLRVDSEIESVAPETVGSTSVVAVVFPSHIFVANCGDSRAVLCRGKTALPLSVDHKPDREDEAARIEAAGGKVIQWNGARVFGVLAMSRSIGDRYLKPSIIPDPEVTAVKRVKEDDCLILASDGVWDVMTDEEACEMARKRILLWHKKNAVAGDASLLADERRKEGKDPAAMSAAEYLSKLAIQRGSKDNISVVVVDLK
together with: (+)-ABA 0 µM: 16.7%
together with: (+)-ABA 1.4 µM: 47.6%
together with: (+)-ABA 4.8 µM: 64.6%
together with: (+)-ABA 710 µM: 116%
together with: (+)-ABA 2500 µM: 96%
together with: (+)-ABA 58 µM: 83.5%

Study 2 — species: cancer patients; matrix: plasma; route: oral; time: cycle 1 day 15; setting: multiple dosing; endpoint: effective half-life, geometric mean
SMILES: COc1ccc(-c2c(Nc3ccccn3)[nH]c3c(C4=CCCCC4)c(-c4ccccc4)nn3c2=O)cc1
200 mg once daily: 70.2 h
400 mg once daily: 31.8 h
50 mg once daily: 69.9 h
150 mg once daily: 59 h
100 mg once daily: 42.6 h

Study 3 — method: protein-binding microarray; molecule type: double-stranded DNA, one strand shown; matrix: in vitro; concentration: 940 nM top; setting: 60-bp whole probe; together with: salmon DNA 0.4 mg/ml; baseline: random background probes; direction: higher = stronger binding; endpoint: fitted relative affinity; all sequences stand within: GCCTAGCAC … GTCTTGATTCGCTTGACGCTGCTG
Target: Interferon regulatory factor 5, full length, phosphomimetic (IRF5, Homo sapiens, UniProt Q13568-2, residues 1-514, S451D/S453D/S456D/S462D)
TCATTTTTATTTATAAAACTGTGCTAG: -0.242 z-score
TGGATGGTCCTGGTTTCATGGGTGCTA: 0.139 z-score
TTAGGTTTCCTTTTCCTTCAGTGCTAG: 2.11 z-score
CCTTTTATGGTTTTTTTTTAGTGCTAG: 1.42 z-score
TCACCTGTCCATTCCTTACTGTGCTAG: 1.35 z-score
TTTGATATCAGACTGGATTAGTGCTAG: -0.411 z-score
GACGATATTAGTATCGAGACGTGCTAG: 2.57 z-score
TTTTCATTGTTTTTCATCATGTGCTAG: 2 z-score

Study 4 — read-out: enzyme activity; action: inhibitor; concentration: 0.5 µM; baseline: control; endpoint: remaining activity
SMILES: Cc1ccc(NC(=O)c2ccc(CN3CCN(C)CC3)cc2)cc1Nc1nccc(-c2cccnc2)n1
ALK (Homo sapiens, UniProt Q9UM73): 95.1%
Cyclin-dependent kinase 3, with cyclin E (CDK3, Homo sapiens, UniProt Q00526): 97.5%
NLK (Homo sapiens, UniProt Q9UBE8): 104%
NEK11 (Homo sapiens, UniProt Q8NG66): 110%
HIPK1 (Homo sapiens, UniProt Q86Z02): 97%
STK25 (Homo sapiens, UniProt O00506): 98.4%
AKT1 (Homo sapiens, UniProt P31749): 93.1%
MARK3 (Homo sapiens, UniProt P27448): 94.1%
Insulin receptor (INSR, Homo sapiens, UniProt P06213): 109%
PKN1 (Homo sapiens, UniProt Q16512): 98.9%
TAOK3 (Homo sapiens, UniProt Q9H2K8): 94.7%
FER (Homo sapiens, UniProt P16591): 94.3%
PASK (Homo sapiens, UniProt Q96RG2): 98.9%
CDC42BPA (Homo sapiens, UniProt Q5VT25): 86.7%
ITK (Homo sapiens, UniProt Q08881): 98.2%
FGR (Homo sapiens, UniProt P09769): 80.1%
PRKX (Homo sapiens, UniProt P51817): 103%
FLT4 (Homo sapiens, UniProt P35916): 98.9%
LIM domain kinase 1 (LIMK1, Homo sapiens, UniProt P53667): 90.1%
MATK (Homo sapiens, UniProt P42679): 94.9%
FYN (Homo sapiens, UniProt P06241): 85.8%

Other studies, line by line
PhoQ, residues 284 288 289 292 302 303 ALSMDL
fold induction (PhoP, residues 12 14 15 18 19 TTLRV (Escherichia coli, UniProt P23836); Sort-seq, refers to: YFP reporter; E. coli; PhoQ-PhoP variant library, together with: 10 µM Mg2+; baseline: high Mg2+ state, higher = stronger signaling): 15.2

COc1ccc2c(c1)O[C@@H](c1ccc(OC)c(OC)c1)C[C@H]2NC(=O)C1(c2ccc3c(c2)OC(F)(F)O3)CC1 (single isomer, unassigned)
remaining binding (ABL1 (Homo sapiens, UniProt P00519, E255K); KINOMEscan; 1 µM, E255K mutant, phosphorylated; baseline: control): 90%

CC(C)n1cnc(-c2ccc(F)cc2)c1-c1ncc(C(=O)Nc2ccc(N3CCN(C)CC3)cc2)[nH]1
Cholecystitis incidence (IPF patients; 30 mg once daily, adverse event): 0%

CN(c1ccnc(CNc2nc(Nc3ccc4c(c3)CC(=O)N4)ncc2C(F)(F)F)n1)S(C)(=O)=O
EC50 (PTK2 (Homo sapiens, UniProt Q05397); target engagement, NanoBRET; live cells): 3.63 µM and 2.45 µM and 3.44 µM

OCCN1CCN(CCCN2c3ccccc3Sc3ccc(Cl)cc32)CC1
serum alkaline phosphatase (mouse, serum; dose not given): 36.5 ± 9.2 U/L

A few entries again (study 1):
together with: (+)-ABA 58 µM: 83.5%
together with: (+)-ABA 0 µM: 16.7%
together with: (+)-ABA 1.4 µM: 47.6%
together with: (+)-ABA 710 µM: 116%
together with: (+)-ABA 4.8 µM: 64.6%
together with: (+)-ABA 2500 µM: 96%
